# Measurements from different studies.
# A part holds a random share of what one study measured. Values joined by “and” are separate records of one study, mostly repeats; a detail may differ.
# UniProt P07949, sequence (whole entry, looked up): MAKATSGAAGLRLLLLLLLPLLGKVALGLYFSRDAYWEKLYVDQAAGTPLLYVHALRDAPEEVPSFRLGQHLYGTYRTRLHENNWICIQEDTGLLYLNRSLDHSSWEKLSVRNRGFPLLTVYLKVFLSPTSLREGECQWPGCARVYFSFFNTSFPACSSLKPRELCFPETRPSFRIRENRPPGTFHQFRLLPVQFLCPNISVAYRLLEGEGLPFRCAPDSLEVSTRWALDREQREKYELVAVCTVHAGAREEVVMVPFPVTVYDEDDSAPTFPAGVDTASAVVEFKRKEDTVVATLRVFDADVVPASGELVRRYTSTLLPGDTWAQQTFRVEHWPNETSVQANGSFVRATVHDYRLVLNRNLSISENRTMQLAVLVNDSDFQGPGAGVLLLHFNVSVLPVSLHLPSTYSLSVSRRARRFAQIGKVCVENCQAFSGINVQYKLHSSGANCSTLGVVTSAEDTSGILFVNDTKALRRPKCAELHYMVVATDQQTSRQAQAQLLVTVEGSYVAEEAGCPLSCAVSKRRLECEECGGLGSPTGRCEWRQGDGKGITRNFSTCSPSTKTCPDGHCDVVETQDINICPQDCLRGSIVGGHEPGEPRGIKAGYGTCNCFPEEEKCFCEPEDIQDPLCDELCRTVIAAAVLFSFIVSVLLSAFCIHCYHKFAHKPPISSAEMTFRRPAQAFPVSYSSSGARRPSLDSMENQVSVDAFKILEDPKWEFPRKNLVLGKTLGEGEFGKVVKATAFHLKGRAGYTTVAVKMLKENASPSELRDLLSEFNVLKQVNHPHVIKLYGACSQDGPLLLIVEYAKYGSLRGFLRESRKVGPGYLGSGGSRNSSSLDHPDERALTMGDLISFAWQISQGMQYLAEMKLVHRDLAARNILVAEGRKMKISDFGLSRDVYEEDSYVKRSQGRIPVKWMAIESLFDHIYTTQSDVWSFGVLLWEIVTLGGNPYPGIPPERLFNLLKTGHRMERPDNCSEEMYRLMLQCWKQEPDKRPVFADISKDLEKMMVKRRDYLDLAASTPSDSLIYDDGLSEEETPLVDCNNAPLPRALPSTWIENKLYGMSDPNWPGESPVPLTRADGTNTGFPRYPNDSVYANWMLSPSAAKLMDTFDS
# UniProt P42679, sequence (whole entry, looked up): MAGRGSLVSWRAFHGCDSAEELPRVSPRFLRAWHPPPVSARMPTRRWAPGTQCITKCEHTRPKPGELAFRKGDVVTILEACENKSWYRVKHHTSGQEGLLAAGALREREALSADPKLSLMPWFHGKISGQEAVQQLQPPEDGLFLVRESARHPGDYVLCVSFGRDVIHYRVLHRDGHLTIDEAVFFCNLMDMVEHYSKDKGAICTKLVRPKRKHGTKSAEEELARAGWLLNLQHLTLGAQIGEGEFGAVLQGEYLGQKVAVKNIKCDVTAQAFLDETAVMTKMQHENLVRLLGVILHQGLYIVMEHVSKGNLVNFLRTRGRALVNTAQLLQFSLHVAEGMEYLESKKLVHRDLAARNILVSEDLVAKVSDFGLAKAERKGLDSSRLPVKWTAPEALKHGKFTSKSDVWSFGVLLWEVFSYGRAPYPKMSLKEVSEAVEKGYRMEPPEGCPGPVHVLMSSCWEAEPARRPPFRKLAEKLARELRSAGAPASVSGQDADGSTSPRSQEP
# UniProt Q96GD4, sequence (whole entry, looked up): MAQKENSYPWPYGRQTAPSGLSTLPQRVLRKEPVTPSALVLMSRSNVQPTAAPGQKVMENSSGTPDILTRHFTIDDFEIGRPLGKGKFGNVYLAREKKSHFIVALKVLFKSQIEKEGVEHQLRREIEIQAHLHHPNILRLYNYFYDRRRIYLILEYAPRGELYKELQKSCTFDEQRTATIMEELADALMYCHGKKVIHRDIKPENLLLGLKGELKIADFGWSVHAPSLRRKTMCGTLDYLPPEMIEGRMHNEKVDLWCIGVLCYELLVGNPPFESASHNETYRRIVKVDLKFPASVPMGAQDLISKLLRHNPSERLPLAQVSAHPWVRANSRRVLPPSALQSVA
# UniProt Q32MK0, sequence (whole entry, looked up): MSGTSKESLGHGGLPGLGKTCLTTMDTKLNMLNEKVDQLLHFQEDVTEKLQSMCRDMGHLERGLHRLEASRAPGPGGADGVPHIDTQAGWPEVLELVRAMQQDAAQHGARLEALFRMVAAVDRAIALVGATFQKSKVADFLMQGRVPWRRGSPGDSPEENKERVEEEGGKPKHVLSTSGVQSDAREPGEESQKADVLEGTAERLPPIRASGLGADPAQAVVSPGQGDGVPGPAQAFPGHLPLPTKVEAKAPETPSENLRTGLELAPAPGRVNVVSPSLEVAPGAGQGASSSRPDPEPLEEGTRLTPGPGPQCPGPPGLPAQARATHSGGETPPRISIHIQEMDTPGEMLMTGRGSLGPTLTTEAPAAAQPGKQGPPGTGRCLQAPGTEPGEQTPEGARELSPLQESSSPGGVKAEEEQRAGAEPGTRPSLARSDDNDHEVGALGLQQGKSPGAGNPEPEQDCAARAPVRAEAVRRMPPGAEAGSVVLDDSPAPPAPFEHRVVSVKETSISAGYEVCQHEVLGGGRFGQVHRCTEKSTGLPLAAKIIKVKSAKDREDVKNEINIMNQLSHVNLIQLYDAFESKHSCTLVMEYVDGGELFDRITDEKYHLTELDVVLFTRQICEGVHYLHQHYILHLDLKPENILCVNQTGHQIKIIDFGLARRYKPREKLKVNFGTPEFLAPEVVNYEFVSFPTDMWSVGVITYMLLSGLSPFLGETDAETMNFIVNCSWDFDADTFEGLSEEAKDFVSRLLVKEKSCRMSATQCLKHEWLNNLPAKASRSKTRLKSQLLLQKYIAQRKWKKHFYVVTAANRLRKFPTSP
# UniProt Q9UEE5, sequence (whole entry, looked up): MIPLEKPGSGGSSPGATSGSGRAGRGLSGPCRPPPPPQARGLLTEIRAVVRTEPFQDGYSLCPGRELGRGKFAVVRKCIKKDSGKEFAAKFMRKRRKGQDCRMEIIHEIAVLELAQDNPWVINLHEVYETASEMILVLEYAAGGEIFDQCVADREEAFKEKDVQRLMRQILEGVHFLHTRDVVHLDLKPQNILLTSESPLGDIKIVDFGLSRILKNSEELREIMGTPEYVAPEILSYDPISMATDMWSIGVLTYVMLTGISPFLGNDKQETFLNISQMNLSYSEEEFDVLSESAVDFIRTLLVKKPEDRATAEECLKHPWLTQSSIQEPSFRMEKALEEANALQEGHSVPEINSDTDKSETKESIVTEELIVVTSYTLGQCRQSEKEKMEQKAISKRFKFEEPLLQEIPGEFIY
# UniProt Q9HC98, sequence (whole entry, looked up): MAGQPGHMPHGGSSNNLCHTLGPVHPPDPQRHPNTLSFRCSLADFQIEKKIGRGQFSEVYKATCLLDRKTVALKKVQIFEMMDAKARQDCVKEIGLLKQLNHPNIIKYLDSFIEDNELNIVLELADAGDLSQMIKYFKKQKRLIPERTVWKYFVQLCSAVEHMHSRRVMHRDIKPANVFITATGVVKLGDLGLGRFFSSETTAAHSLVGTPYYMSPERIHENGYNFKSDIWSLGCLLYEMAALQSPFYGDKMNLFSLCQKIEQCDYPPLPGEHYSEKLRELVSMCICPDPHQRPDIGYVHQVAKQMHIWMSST

# Study 1
# SMILES: COc1cc(/C=C(\C#N)C(=O)c2ccc(O)c(O)c2)cc(I)c1O
# Action: inhibitor
# Tested at: 5 µM
target,assay,test system,setting,scale,log2 fold change
"Dual specificity tyrosine-phosphorylation-regulated kinase 1B, with CDC37 (DYRK1B, Homo sapiens, UniProt Q9Y463)",,human cells,,relative to: vehicle,0.517
human CCDC6-PDGFRB fusion,kinase–CDC37 interaction,,,relative to: vehicle,-0.016
"RPS6KA2 (Homo sapiens, UniProt Q15349)",kinase activity,,cell-based kinome screen,relative to: vehicle,-0.24
"ROR2 (Homo sapiens, UniProt Q01974)",kinase activity,,cell-based kinome screen,relative to: vehicle,0.632
"MATK (Homo sapiens, UniProt P42679)",cell-based kinome screen,human cells,,relative to: untreated control,-0.227 log2
"RET (Homo sapiens, UniProt P07949)",,human cells,cell-based kinome screen,relative to: vehicle,0.249 and 0.503
"ALK (Homo sapiens, UniProt Q9UM73, T1151M)",cell-based kinome profiling,human cells,,relative to: vehicle control,0.064
"Aurora kinase B (AURKB, Homo sapiens, UniProt Q96GD4)",kinase-CDC37 interaction,human cells,,relative to: vehicle,-0.237

# Study 2
# SMILES: C=CCc1ccc(O)c(-c2cc(CC=C)ccc2O)c1
# Target: Anoctamin-1 (ANO1, Homo sapiens, UniProt Q5XXA6, del476-501)
# UniProt Q5XXA6, sequence (whole entry, unmodified, looked up): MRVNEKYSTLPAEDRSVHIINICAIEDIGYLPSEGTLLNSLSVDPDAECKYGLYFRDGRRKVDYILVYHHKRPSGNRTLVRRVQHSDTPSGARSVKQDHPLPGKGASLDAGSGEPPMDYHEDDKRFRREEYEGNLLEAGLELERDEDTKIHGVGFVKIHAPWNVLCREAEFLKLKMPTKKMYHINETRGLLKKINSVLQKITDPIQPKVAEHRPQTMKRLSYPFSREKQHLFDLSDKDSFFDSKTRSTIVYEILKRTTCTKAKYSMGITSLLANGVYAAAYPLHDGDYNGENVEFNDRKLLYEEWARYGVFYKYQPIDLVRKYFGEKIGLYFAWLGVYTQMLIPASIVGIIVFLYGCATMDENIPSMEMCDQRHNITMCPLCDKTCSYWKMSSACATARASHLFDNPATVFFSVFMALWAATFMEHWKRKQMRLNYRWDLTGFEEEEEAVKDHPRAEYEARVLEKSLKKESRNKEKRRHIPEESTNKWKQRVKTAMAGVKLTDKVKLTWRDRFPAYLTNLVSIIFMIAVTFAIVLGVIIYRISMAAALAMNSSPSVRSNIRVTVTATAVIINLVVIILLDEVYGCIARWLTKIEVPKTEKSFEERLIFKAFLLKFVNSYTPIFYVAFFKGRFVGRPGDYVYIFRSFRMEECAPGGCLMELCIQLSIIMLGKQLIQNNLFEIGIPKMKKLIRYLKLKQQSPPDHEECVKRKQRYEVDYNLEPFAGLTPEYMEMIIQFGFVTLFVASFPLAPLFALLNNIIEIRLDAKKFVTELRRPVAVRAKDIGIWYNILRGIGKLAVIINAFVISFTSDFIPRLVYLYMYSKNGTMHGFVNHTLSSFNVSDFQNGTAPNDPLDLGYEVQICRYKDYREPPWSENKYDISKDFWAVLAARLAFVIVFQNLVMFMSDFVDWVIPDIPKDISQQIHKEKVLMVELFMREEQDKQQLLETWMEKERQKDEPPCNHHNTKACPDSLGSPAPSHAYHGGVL
# Effect on: chloride current
# Method: whole-cell patch clamp
setting,normalised current
"100 µM, 40 mV, 300 nM free Ca2+",0.042
"10 µM, -60 mV, 300 nM free Ca2+, together with: honokiol and magnolol 3 µM",-0.0565
"100 µM, 20 mV, 300 nM free Ca2+, together with: honokiol and magnolol 3 µM",0.0075
"100 µM, 60 mV, 300 nM free Ca2+, together with: honokiol and magnolol 3 µM",0.0438
"100 µM, 80 mV, 300 nM free Ca2+, together with: honokiol and magnolol 3 µM",0.0849
"100 µM, 80 mV, 300 nM free Ca2+",0.166
"100 µM, 60 mV, 300 nM free Ca2+",0.0888
"100 µM, -60 mV, 300 nM free Ca2+",-0.0215
"10 µM, 100 mV, 300 nM free Ca2+",0.659
"3 µM, 0 mV, 300 nM free Ca2+",-0.000379
"10 µM, -40 mV, 300 nM free Ca2+, together with: honokiol and magnolol 3 µM",-0.0491
"100 µM, 100 mV, 300 nM free Ca2+, together with: honokiol and magnolol 3 µM",0.146
"3 µM, -100 mV, 300 nM free Ca2+",-0.0991
"30 µM, 60 mV, 300 nM free Ca2+, together with: honokiol and magnolol 3 µM",0.098
"3 µM, -80 mV, 300 nM free Ca2+",-0.0939

# Study 3
# SMILES: O=C(Nc1cnn(-c2csc(C(=O)NC3COC3)c2)c1)Nc1c(F)cccc1Cl
# Tested at: 5 µM
# MAP3K8: Mitogen-activated protein kinase kinase kinase 8 (MAP3K8, Homo sapiens, UniProt P41279)
# UniProt P41279, sequence (whole entry, looked up): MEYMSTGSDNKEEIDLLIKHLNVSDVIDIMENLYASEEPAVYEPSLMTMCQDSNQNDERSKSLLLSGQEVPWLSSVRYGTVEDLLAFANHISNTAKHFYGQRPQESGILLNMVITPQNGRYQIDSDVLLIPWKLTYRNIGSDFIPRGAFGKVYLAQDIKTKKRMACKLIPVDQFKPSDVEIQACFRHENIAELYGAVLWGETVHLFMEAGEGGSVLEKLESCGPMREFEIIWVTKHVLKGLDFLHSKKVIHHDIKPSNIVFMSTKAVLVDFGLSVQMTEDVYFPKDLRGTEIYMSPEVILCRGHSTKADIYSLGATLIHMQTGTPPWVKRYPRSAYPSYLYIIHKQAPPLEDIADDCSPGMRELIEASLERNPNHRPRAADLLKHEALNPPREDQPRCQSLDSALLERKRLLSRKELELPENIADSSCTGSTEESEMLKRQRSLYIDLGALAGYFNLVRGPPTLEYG
target,assay,scale,remaining activity
"NEK6 (Homo sapiens, UniProt Q9HC98)",enzyme activity,relative to: untreated control,87.2%
"Cyclin-dependent kinase 3, with cyclin E (CDK3, Homo sapiens, UniProt Q00526)",enzyme activity,relative to: untreated control,90.9%
"EPHA8 (Homo sapiens, UniProt P29322)",enzyme activity,relative to: untreated control,92.7%
MAP3K8,enzyme activity,relative to: untreated control,87.6%
MAP3K8,"enzyme activity, inhibitor",,93.6%
"Protein kinase C beta type, isoform beta-II (PRKCB, Homo sapiens, UniProt P05771)","kinase activity, kinase panel profiling",,99%
"PBK (Homo sapiens, UniProt Q96KB5)",enzyme activity,relative to: untreated control,95.7%
"CHUK (Homo sapiens, UniProt O15111)",enzyme activity,relative to: untreated control,106%
"MATK (Homo sapiens, UniProt P42679)",enzyme activity,relative to: untreated control,99.1%
"NEK7 (Homo sapiens, UniProt Q8TDX7)",enzyme activity,relative to: untreated control,87.6%
"EPHA3 (Homo sapiens, UniProt P29320)",enzyme activity,relative to: untreated control,95.4%
"Cell division cycle 7-related protein kinase, with DBF4 (CDC7, Homo sapiens, UniProt O00311)",enzyme activity,relative to: untreated control,81.5%
"GSK3B (Homo sapiens, UniProt P49841)",enzyme activity,relative to: untreated control,94.8%

# Study 4
# SMILES: Cc1cc(-n2nc(Cc3cc(F)cc(C(F)(F)F)c3)nc2C)ccc1C(N)=O
# Effect on: cell-free assay
# Method: competition with immobilised ligand
# Tested at: 1 µM
target,remaining binding [%]
"PIK3C2G (Homo sapiens, UniProt O75747)",100
"PIK3CA (Homo sapiens, UniProt P42336, I800L)",70
"LRRK2 (Homo sapiens, UniProt Q5S007)",99
"FLT3 (Homo sapiens, UniProt P36888, F691L/ITD)",100
"CDKL3 (Homo sapiens, UniProt Q8IVW4)",83
"FRK (Homo sapiens, UniProt P42685)",100
"DCLK1 (Homo sapiens, UniProt O15075)",100
"TRPM6 (Homo sapiens, UniProt Q9BX84)",100
"CAMK1G (Homo sapiens, UniProt Q96NX5)",100
"PRKAA1 (Homo sapiens, UniProt Q13131)",100
"NEK2 (Homo sapiens, UniProt P51955)",100
"PRKCI (Homo sapiens, UniProt P41743)",100
"EPHA4 (Homo sapiens, UniProt P54764)",96
"MYLK3 (Homo sapiens, UniProt Q32MK0)",92
"Tyrosine-protein kinase ABL1, phosphorylated (ABL1, Homo sapiens, UniProt P00519, H396P)",98
"PLK4 (Homo sapiens, UniProt O00444)",84
"PRKCQ (Homo sapiens, UniProt Q04759)",100
"DYRK2 (Homo sapiens, UniProt Q92630)",91
"STK32B (Homo sapiens, UniProt Q9NY57)",100
"GRK1 (Homo sapiens, UniProt Q15835)",87
"STK17A (Homo sapiens, UniProt Q9UEE5)",100
"SLK (Homo sapiens, UniProt Q9H2G2)",92
